Published values from different studies.
Every numbered part comes from another study and shows a few of its results, in no order. Changes are numbered by the printed parent chain.

Series 1 — technique: DHFR PCA, deep sequencing; sample: yeast; with: (+)-ABA 17 µM; relative to: wild-type fitted maximum; direction: higher = stronger binding
Target: ABI1, truncated, D143A, DHFR fusion (Arabidopsis thaliana)
Setting: methotrexate growth selection, single substitutions
Starting sequence: PYL1, truncated, DHFR fusion (Arabidopsis thaliana); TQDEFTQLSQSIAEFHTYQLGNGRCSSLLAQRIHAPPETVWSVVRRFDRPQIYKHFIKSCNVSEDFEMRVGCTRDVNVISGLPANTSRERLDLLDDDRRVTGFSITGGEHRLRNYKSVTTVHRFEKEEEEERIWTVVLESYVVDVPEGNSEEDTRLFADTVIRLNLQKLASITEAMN
Change	relative binding score
Y53S	-3.03%
N85C	82.3%
G108T	6.16%
G71E	-11.3%
I133F	93.9%
F5I	79.1%
C25S	49.9%
S63N	80.9%
Q2M	78.7%
T6F	70.6%
V40T	3.06%
L8Q	52.5%
N22I	82.3%

Series 2 — target: CCNA1, cyclin fold, Cln2 fusion (human); technique: yeast growth competition, sequencing; sample: yeast; setting: weak parent motif; relative to: not given; direction: higher = stronger binding
Starting sequence: HIRA docking peptide (human); SLSKRKLELEVET
Change	normalised enrichment score
S3A	0.0943
V11A	-0.00766
R5K	0.122
L7A	-0.103
L9A	0.365
E8A	0.544
T13A	0.295

Series 3 — target: ATF2, bZIP domain (human); technique: DHFR protein complementation; sample: yeast; relative to: wild-type JUN-FOS pair; direction: higher = stronger binding
Setting: single substitutions, most at no-binding floor
Starting sequence: JUN, bZIP domain (human); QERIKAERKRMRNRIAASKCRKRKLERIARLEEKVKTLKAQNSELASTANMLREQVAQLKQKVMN; partner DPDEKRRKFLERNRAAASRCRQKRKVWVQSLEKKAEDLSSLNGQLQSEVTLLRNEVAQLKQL
Change	binding fitness
L31F	-1.51 natural log
E44M	-1.38 natural log
E54M	-1.52 natural log
K34V	-1.42 natural log
L38T	-1.53 natural log
E54T	-1.32 natural log
L45P	-1.52 natural log
T48H	-1.04 natural log
A57R	-1.45 natural log
A57L	-1.42 natural log
A49M	-1.39 natural log

Series 4 — technique: RNA Bind-n-Seq; molecule type: RNA; sample: in vitro; tested at: 365 nM; relative to: no-protein control; direction: higher = stronger binding
Target: RNA binding protein fox-1 homolog 2, RRM domain, GST-SBP tag (RBFOX2, Homo sapiens, UniProt O43251-10, residues 100-194)
Setting: natural RNA segment, single round, ends assumed
Target sequence (chain): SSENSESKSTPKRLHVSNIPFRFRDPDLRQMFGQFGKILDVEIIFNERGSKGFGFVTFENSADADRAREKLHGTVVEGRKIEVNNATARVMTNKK
Oligonucleotide	RBNS enrichment (R)
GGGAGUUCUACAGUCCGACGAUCCAGAUCCUAGCUCCGCCUCCUGGGCAGUCCUUCUGAAAAGUCCCAUGUAAGCAGCAAAGGGGCGUAAGUAGCCACGAGGCACCUCGCAUGCCUUCUUCAGUGGCUGAGGGUGGAAUUCUCGGGUGCCAA	1.28
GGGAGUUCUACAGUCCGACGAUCAACCACCCACCCCAUUGGGAGAAAAACCCAGACGCCAGGAAAAGAAGAAACAACAAAGGCAGGAGAACAGCCACUUUCAGACUUGAAAAUGACAAAACCCUCAGUUGAGCUGGAAUUCUCGGGUGCCAA	0.35
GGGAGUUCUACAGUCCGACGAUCGCUACAGACGAGUGACCCUUAGAUGACCUCCUCAACUGCCUGCCUUGUGUGUGCGCGCAAGGCCCCUCUCUGCACAGGGGUUCUUCGGGGGAGGGGGUAUUUGCAAAACCUGGAAUUCUCGGGUGCCAA	0.671
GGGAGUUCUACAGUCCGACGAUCAAGCUGAAGACUCCAGACACUGUCUGUGUGACUGUAACAUUUCUUCAAGGAAAGUAUAGCGUCUAUGGAGUUCAGAGGGCACGUGUUUGGGGGAAAAUAUAUAUGACAUGUGGAAUUCUCGGGUGCCAA	0.774
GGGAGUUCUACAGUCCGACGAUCGCUCUGAGCCUCCCUUCCCCAUUCCCCAUCCAGCUCCUUUCCCCCUGGGUUUCCUUGGCUUCCUGCAGCAAAUUGGGCAGUUCUCUGCCCCUUGCCUAAAAGCCUGUACCUGGAAUUCUCGGGUGCCAA	0.596
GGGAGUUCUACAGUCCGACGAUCUACUAGACCUCAACCACAGUCUUCUUUUUCCCCUUCCACCUCUCUUUGCCUGUAGGAUGUACUGUAUGUAGUCAUGCACUUUGUAUUAAUAUAUUAGAAAUCUACAGAUCUGGAAUUCUCGGGUGCCAA	2.1
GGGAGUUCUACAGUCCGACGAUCCCCUGUGGGGCUCAAUGUGGUGUCGCCUCUCUGGGCUGAGUGACUUGAUUUGACCAGCAUGCACUCAGAUUAGCUGCUCGACAGAGGUGUCCCCUUUUCAAUGAACCAUCUGGAAUUCUCGGGUGCCAA	5.46
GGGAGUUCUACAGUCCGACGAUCGGACCCACGCUGUCUGCGCUGGCUCCACCCGGGAACCCGCCGCACGCUGUGUUCUAGGCCCGCCCACCCCAACCUUCUGGUGGGGAGAAAUAAACGGUUUAGAGACUAGGUGGAAUUCUCGGGUGCCAA	2.23
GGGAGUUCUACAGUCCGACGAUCUCCAAGACUGUACCAAGCCAAGCUCUGAUAAGCUUCCAUCUUCCAUGGCUGGUAGACUGAACUGUCCCAGAAUCACUAGCUUGAGGUAGAGGAGGGGAGGGCAGAGUCACUGGAAUUCUCGGGUGCCAA	0.464
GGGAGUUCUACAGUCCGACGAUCGUGUUACUGUGUUCCCUUAGAGCAUGUGGGCCAGUGGGCCACAUUCAUAAUGCAGUUGCCCAAGGCCUGUCUUGCAGUGGUACCUUAAAGUUAACCUCAUAAUCUUGGAAUGGAAUUCUCGGGUGCCAA	1.24
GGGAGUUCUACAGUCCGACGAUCUGUUAUGGUUGGAGGUCACCACAACAUGAGCAACUGCAUUAAAGGAUCGCAGCAUCACGAAGGUGGAGAAGCCCUGCUCUAUGGGAAAUGUCCCUGGUAUCUCUGUGGUCUGGAAUUCUCGGGUGCCAA	0.574
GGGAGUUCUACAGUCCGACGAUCGUCUUUAAGCAGCCGUGUCCAGGCUUCCUGAGAACACCGGCUGCAAACACGGGCAUCCCGGGGAAAGCUGGGAGUUUGGUUCCUGGCACAUUGCAAUCACUUGAUUGUGAUGGAAUUCUCGGGUGCCAA	0.338

Series 5 — technique: aptamer microarray, sandwich; molecule type: DNA with 2'F-ANA; sample: in vitro; tested at: 200 nM; with: Cy3 exosite-II aptamer, 400 nM; direction: higher = stronger binding; oligonucleotide: GGTTGGTGTGGTTGG
Target: Prothrombin, mature alpha-thrombin (F2, Homo sapiens, UniProt P00734)
Setting: whole 15-mer aptamer, many near background
Modification	mean fluorescence intensity [a.u.]
2'F-ANA at 2 5 7 8 9 13 14 15	57.4
2'F-ANA at 2 3 5 6 7 11 12 15	129
2'F-ANA at 3 4 6 7 8 10 12 13	275
2'F-ANA at 1 3 4 6 8 9 14 15	64.9
2'F-ANA at 2 3 5 6 7 8 9 10 11 12 14 15	55.9
2'F-ANA at 1 3 9 10 12 14 15	60.8
2'F-ANA at 1 2 4 10 14	43.1
2'F-ANA at 1 2 3 4 8 9 10 11 13 15	57.4
2'F-ANA at 2 5 6 7 10 11 13 15	49.8
2'F-ANA at 1 2 12 14	65.3
2'F-ANA at 1 2 3 4 5 6 10 11 12 14 15	49.4
2'F-ANA at 1 3 5 8 10 13	63.5
2'F-ANA at 6 14	206
2'F-ANA at 2 3 5 6 9 10 13 15	48.7
2'F-ANA at 4 6 8 10 11 15	66.6
2'F-ANA at 1 2 7 8 10	56.7

Series 6 — technique: protein-binding microarray; molecule type: double-stranded DNA, one strand shown; sample: in vitro; tested at: 2200 nM top; setting: 60-bp whole probe; with: salmon DNA 0.4 mg/ml; relative to: random background probes; direction: higher = stronger binding; constant ends, left off below: GCCTAGCAC … GTCTTGATTCGCTTGACGCTGCTG
Target: Interferon regulatory factor 7, full length, phosphomimetic (IRF7, Homo sapiens, UniProt Q92985, residues 1-503, S471D/S472D/S475D/S476D/S477D/S483D/S484D/S487D)
Target sequence (chain): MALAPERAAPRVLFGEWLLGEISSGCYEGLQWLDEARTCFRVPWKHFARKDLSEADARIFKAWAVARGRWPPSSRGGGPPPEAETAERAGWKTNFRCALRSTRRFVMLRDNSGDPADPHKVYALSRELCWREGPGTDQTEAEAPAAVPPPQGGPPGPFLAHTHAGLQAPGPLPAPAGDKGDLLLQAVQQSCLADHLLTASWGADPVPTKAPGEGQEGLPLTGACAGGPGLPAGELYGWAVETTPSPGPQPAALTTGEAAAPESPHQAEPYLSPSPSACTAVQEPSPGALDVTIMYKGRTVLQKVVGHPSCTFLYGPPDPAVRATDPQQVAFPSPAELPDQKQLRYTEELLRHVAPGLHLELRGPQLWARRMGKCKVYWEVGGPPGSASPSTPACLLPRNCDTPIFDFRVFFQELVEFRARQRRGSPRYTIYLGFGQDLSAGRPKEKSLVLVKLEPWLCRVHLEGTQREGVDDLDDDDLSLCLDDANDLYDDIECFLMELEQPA
Oligonucleotide	fitted relative affinity [z-score]
CACTATTTAAGACCTATGCACGTGCTA	0.412
CGGGCTTTCCCGTCCAGGGCGTGCTAG	-0.72
TTAGATTTCAGTTTCGATTGGTGCTAG	10.6
GACGGTATCGGTCTCGGTACGTGCTAG	0.305
TTTGGACTGGGGTATCGGTTAGTGCTA	0.223
TCACCTCTAGGTTTTCTACTGTGCTAG	1.11
TTAGATTCCTGTTTCGATTAGTGCTAG	4.87
TTCTATATTTGCTTCAGGTTGTGCTAG	1.29
GAACCTTCCCCTCTAGGTTCGTGCTAG	2.52
TCAGATATCAGACTGGATTAGTGCTAG	0.011
TTCCTTGCTATGTTGCTCAGGTGCTAG	2.09
GTAGGTTTCCTTATCCTTTAGTGCTAG	1.99
GAGACTTTGCTCTGTGCATAGGTGCTA	-0.0557
CGATTACAGCTAGGTAGTGGGTGCTAG	0.0967
AACTTTGGTATCTGGCATCTGTGCTAG	0.572
GCCGATTTCAGACTGGAGACGTGCTAG	0.958
TTAGGACTGGGTATCGGTTCGTGCTAG	0.479
ATAGGTTTCGACTTTCGGTTAGTGCTA	10.9
CCTAATCTCAGCCTCCGTCAGTGCTAG	0.956
GATGATATCAGACTGGAGACGTGCTAG	-0.00469
TCAGTTTTGTGTGTGTGACTGTGCTAG	2.01
GACGGGCTCGGACTGGGGACGTGCTAG	-1.21
GTCGGACTGGGGTTTCGGGACGTGCTA	0.62
CTTTGCCTCATCTTGCAGGTAGTGCTA	0.865
GACGGTTTCGCTCTCGGGACGTGCTAG	5.21
